Results collected from several papers.
Each line is one published result; not all experiments were run side by side. ± gives the spread as reported.

| SMILES | assay | test system | conditions | tracer uptake |
| --- | --- | --- | --- | --- |
| CN(O)C(=O)CCC(=O)NCCCN(CCCCN(CCCNC(=O)CCC(=O)N(C)O)C(=O)CCC(=O)N(C)O)C(=O)CCC(=O)N(C)O.[89Zr] | – | mouse, pancreas | 1 h | 0.29 %ID/g |
| [123I]c1ccc2nc(-c3ccc(-n4ccnn4)nc3)cn2c1 | – | male Wistar rat, lung | intravenous, 4 MBq, 14 h | 0.012 %ID/g |
| CC(=O)N([O-])CCCCCNC(=O)CCC(=O)N([O-])CCCCCNC(=O)CCC(=O)N([O-])CCCCCN.[89Zr+4] | – | mouse, fat | 4 h | 0.02 %ID/g |
| CN([O-])C(=O)CN1CCNCCN(CC(=O)N(C)[O-])CC1.[89Zr+4] | – | mouse, muscle | intravenous, 1 h | 0.2 %ID/g |
| CN(Cc1ccccc1)C(=O)CN1CCN(CC(=O)[O-])CCN(CC(=O)N(C)Cc2ccccc2)CC1.[18F-].[Sc+3] | – | mouse, kidney | intravenous, 1 h | 0.43 %ID/g |
| COc1ccc2c(c1)C(C)(C)C(/C=C/C1=C(Oc3ccc(C(=O)NCCCCOc4cc(CN(Cc5ccccn5)Cc5ccccn5)cc(CN(Cc5ccccn5)Cc5ccccn5)c4)cc3)C(=C/C=C3/N(CCCCS(=O)(=O)[O-])c4ccc(OC)cc4C3(C)C)CCC1)=[N+]2CCCCS(=O)(=O)[O-].O=[N+]([O-])[O-].O=[N+]([O-])[O-].[99Tc+].[C-]#[O+].[C-]#[O+].[C-]#[O+].[Zn+2] | – | mouse, bone | 12 h | 0.78 %ID/g |
| CN(Cc1ccccc1)C(=O)CN1CCN(CC(=O)[O-])CCN(CC(=O)[O-])CC1.[18F-].[Sc+3] | – | mouse, kidney | intravenous, 1 h | 1.9 %ID/g |
| CC(C(=O)O)n1nc(Cn2cc3cc(OCC[18F])c(Cl)cc3n2)c2ccccc2c1=O (racemic) | – | rat, blood | 5 min | 0.47 %ID/g |
| CN(Cc1ccccc1)C(=O)CN1CCN(CC(=O)[O-])CCN(Cc2cccc(C(=O)[O-])n2)CC1.[44Sc+3] | – | mouse, lung | intravenous, 1 h | 0.88 %ID/g |
| Cc1nc(N)nc2c1C(=O)N[C@@H](c1ccc(F)cc1-c1cccc(O[11CH3])n1)C2 | ex vivo biodistribution | mice, U87 subcutaneous xenograft, stomach | 60 min post-injection, baseline, vehicle pre-treatment | 1.1 ± 1 %ID |
| O=C([O-])CN1CCN(CC(=O)[O-])CCN(Cc2cccc(C(=O)[O-])n2)CC1.[44Sc+3] | – | mouse, kidney | intravenous, 1 h | 3.48 %ID/g |
| CN([O-])C(=O)CN1CCN(CC(=O)N(C)[O-])CCN(Cc2ccccn2)CC1.[89Zr+4] | – | mouse, kidney | intravenous, 24 h | 1.29 %ID/g |
